{"data": "Assay results collected from several papers", "note": "A part holds a random share of what one study measured."}
{"data": "Study 1", "target": "Ras GTPase-activating protein-binding protein 1, full length (G3BP1, Homo sapiens, UniProt Q13283)", "technique": "RNA Bind-n-Seq", "form": "RNA", "matrix": "in vitro", "tested at": "200 nM", "setting": "whole 134-nt RNA, ends assumed", "with": "150 mM KCl", "reference": "input library", "reading": "higher = stronger binding", "shared flanks, not repeated": "GGGAGUUCUACAGUCCGACGAUC … UGGAAUUCUCGGGUGUCAAGG", "UniProt Q13283, sequence (whole entry, looked up)": "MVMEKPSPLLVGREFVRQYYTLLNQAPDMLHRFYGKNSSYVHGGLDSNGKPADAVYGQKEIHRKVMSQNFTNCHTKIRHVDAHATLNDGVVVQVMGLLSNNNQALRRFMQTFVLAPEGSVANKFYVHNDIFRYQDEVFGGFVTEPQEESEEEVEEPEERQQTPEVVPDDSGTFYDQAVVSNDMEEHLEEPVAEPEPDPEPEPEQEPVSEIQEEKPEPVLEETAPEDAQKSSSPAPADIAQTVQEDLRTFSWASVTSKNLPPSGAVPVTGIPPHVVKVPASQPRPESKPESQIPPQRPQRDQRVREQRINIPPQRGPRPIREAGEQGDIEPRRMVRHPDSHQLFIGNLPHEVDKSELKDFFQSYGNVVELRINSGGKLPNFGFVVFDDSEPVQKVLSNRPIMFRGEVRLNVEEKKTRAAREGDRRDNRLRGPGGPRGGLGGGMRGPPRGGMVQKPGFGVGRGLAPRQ"}
{"Oligonucleotide": "AAGUCCUGUGCUACACAUCGUAUGUACCGAAUCGGAAAAAGGUUUGGUUUUUUUGGAAAGUAUUAUGUUACGCCGUUCGGAUCUGCACUU", "log2 enrichment": -1.25}
{"Oligonucleotide": "UGGCCCUGGUGUCAUGCGGGGAGGAAGAGGUGGCCUCAUGGAUCGUGGUGGUCCCGGUGGAAUGUUCAGAGGUGGCCGUGGUGGAGACAG", "log2 enrichment": 0.00105}
{"Oligonucleotide": "UUUGUGAGACAUGUGAAAGGAGGACAUGGUCACAGUCAUGGACAUGGACACGCUCACAGUCAUACACGUGGAAGUCAUGGACAUGGAAGA", "log2 enrichment": -2.36}
{"Oligonucleotide": "CUGUGCUACACAUCGUAUGUACCGAAUCGGCCCCCCCGGCCCCCCCGGGGCCCCCCCGGGGAAAGUAUUAUGUUACGCCGUUCGGAUCUG", "log2 enrichment": -0.671}
{"Oligonucleotide": "UCAAGUCCUGUGCUACACAUCGUAUGUACCGAAUCGGAAAAAAAGGUUUGGUGGAAAGUAUUAUGUUACGCCGUUCGGAUCUGCACUUCC", "log2 enrichment": -1.13}
{"Oligonucleotide": "UUUGCAGAGCAGUCUCUGAUGAAGAAUGCCAUAAAAACAUCGGAGGAGUCAUGGAUUGAACAGCAGAUGCUAGAAGACAAGAAACGGGCC", "log2 enrichment": -1.19}
{"Oligonucleotide": "CCUCAAGUCCUGUGCUACACAUCGUAUGUACCGAAUCGGGCGGGGCGGGGCGGAAAGUAUUAUGUUACGCCGUUCGGAUCUGCACUUCCA", "log2 enrichment": 0.539}
{"Oligonucleotide": "UGUGCUACACAUCGUAUGUACCGAAUCGGGGAAAAAGGGGAAAAAAAGGGGAAAAAAAGGGGAAAGUAUUAUGUUACGCCGUUCGGAUCU", "log2 enrichment": -0.265}
{"Oligonucleotide": "CAAGUCCUGUGCUACACAUCGUAUGUACCGAAUCGGAAAAAAAGGUUUGGAAAGGAAAGUAUUAUGUUACGCCGUUCGGAUCUGCACUUC", "log2 enrichment": -1.58}
{"Oligonucleotide": "CCUGUGCUACACAUCGUAUGUACCGAAUCGGGCCCCCCGGGCCCCCCGGGGCCCCCCGGGAAAGUAUUAUGUUACGCCGUUCGGAUCUGC", "log2 enrichment": -0.786}
{"data": "Study 2", "target": "Histone acetyltransferase KAT6A, winged helix 1, GST fusion (KAT6A, Homo sapiens, UniProt Q92794, residues 1-85)", "technique": "protein binding microarray", "form": "double-stranded DNA, one strand shown", "matrix": "in vitro", "tested at": "not given", "setting": "8-mer, flanks averaged, mean of 2 arrays, mostly near background", "reference": "not given", "reading": "higher = stronger binding", "Construct (chain)": "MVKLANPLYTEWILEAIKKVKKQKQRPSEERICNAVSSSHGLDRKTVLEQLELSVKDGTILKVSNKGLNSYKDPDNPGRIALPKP"}
{"Oligonucleotide": "GATCACCA", "E-score": 0.00965}
{"Oligonucleotide": "AGTTCTTA", "E-score": -0.28}
{"Oligonucleotide": "CCGCAAAG", "E-score": 0.238}
{"Oligonucleotide": "ATCGGCCC", "E-score": 0.307}
{"Oligonucleotide": "GGGTAAAC", "E-score": -0.0429}
{"Oligonucleotide": "CACAGCCC", "E-score": -0.0647}
{"Oligonucleotide": "GAACCAGC", "E-score": -0.0938}
{"Oligonucleotide": "AACCAGGC", "E-score": -0.133}
{"Oligonucleotide": "CGTCTGGA", "E-score": 0.00473}
{"Oligonucleotide": "CTCCCATA", "E-score": -0.209}
{"Oligonucleotide": "AGTACAGA", "E-score": -0.0236}
{"Oligonucleotide": "CGAGTATA", "E-score": -0.137}
{"Oligonucleotide": "AAGTACAT", "E-score": -0.0938}
{"Oligonucleotide": "GTAAAAGA", "E-score": -0.112}
{"Oligonucleotide": "TCTGTCAA", "E-score": -0.241}
{"Oligonucleotide": "GAGGTAGC", "E-score": 0.0161}
{"Oligonucleotide": "AGACACAC", "E-score": -0.196}
{"Oligonucleotide": "CGACGATA", "E-score": 0.0624}
{"Oligonucleotide": "GCTAGGGA", "E-score": -0.084}
{"data": "Study 3", "target": "PABPC1L2, full length, GST fusion (mouse, UniProt A0ABA7IW68)", "technique": "RNAcompete", "form": "RNA", "matrix": "in vitro", "tested at": "20 nM", "setting": "7-mer, probes averaged, single round", "reference": "mean of 7-mers", "reading": "higher = stronger binding", "Residues (chain)": "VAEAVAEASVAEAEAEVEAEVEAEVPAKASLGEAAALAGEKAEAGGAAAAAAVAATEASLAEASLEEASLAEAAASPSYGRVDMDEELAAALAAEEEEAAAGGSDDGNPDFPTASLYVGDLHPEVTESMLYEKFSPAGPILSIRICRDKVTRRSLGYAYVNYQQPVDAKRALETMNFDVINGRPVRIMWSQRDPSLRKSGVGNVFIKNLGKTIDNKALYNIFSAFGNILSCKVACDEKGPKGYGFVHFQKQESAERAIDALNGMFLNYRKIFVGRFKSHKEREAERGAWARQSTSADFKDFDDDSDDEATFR"}
{"Oligonucleotide": "GACGCUC", "7-mer Z-score": -0.219}
{"Oligonucleotide": "CGCACUC", "7-mer Z-score": -0.179}
{"Oligonucleotide": "GACAAGG", "7-mer Z-score": 0.383}
{"Oligonucleotide": "UGUUAAA", "7-mer Z-score": 0.423}
{"Oligonucleotide": "AUAAAUG", "7-mer Z-score": 1.4}
{"Oligonucleotide": "UGUAGGA", "7-mer Z-score": -0.00652}
{"Oligonucleotide": "GUAGCAC", "7-mer Z-score": -0.0989}
{"Oligonucleotide": "CCUAGUC", "7-mer Z-score": -0.532}
{"Oligonucleotide": "ACUCGUA", "7-mer Z-score": -0.306}
{"Oligonucleotide": "UCAAGAU", "7-mer Z-score": -0.0971}
{"Oligonucleotide": "CUCGUCA", "7-mer Z-score": -0.389}
{"Oligonucleotide": "AAAUUCU", "7-mer Z-score": 0.423}
{"Oligonucleotide": "UGUAAUG", "7-mer Z-score": -0.222}
{"Oligonucleotide": "UGUUCCC", "7-mer Z-score": -0.44}
{"Oligonucleotide": "GCUUUGG", "7-mer Z-score": -0.322}
{"Oligonucleotide": "UGUACAU", "7-mer Z-score": -0.146}
{"Oligonucleotide": "ACGAAUA", "7-mer Z-score": 0.0478}
{"Oligonucleotide": "GAAUCCU", "7-mer Z-score": -0.385}
{"Oligonucleotide": "GCCCUUA", "7-mer Z-score": -0.354}
{"Oligonucleotide": "CCUCCCA", "7-mer Z-score": -0.349}
{"Oligonucleotide": "GCGAGCU", "7-mer Z-score": -0.253}
{"Oligonucleotide": "GUUGGCG", "7-mer Z-score": -0.211}
{"Oligonucleotide": "CCAUCAA", "7-mer Z-score": 0.000733}
{"data": "Study 4", "organism": "Saccharomyces cerevisiae", "observed": "binding", "technique": "yeast competitive growth sequencing", "form": "peptide", "strain": "cyclin B3-Cln2 fusion strain", "setting": "peptide tiling library", "reading": "direction not given"}
{"Molecule": "PLRKAKRARLCSSSSS", "enrichment score": 1.57}
{"Molecule": "VLLKRLQDVVSERANH", "enrichment score": -1.48}
{"Molecule": "KRRLDLETDHQY", "enrichment score": -0.161}
{"Molecule": "AGSAKRRLFGEDPPKE", "enrichment score": -0.826}
{"Molecule": "IQKKLRFEDTLEFVGF", "enrichment score": -1.47}
{"Molecule": "ALLRRLQDVANDRGSH", "enrichment score": -0.889}
{"Molecule": "RSLKLDGLLEEN", "enrichment score": -2.94}
{"Molecule": "LKGRRLVFDN", "enrichment score": -0.0828}
{"Molecule": "TRRRLFVENDSP", "enrichment score": 0.537}
{"Molecule": "CFRCLLFSFSGRSGVE", "enrichment score": -1.68}
{"Molecule": "ISRLFPPRTPGWHQLQ", "enrichment score": -2.39}
{"Molecule": "RVSGLLSWTLSRVLWL", "enrichment score": -1.09}
{"Molecule": "LAKRALKYTD", "enrichment score": -1.8}
{"data": "Study 5", "target": "Protein C-ets-1 (ETS1, Homo sapiens, UniProt P14921, residues 1-441, full length assumed)", "technique": "protein-binding microarray", "form": "double-stranded DNA, one strand shown", "matrix": "in vitro", "tested at": "not given", "setting": "k-mer, scored over probes, only values ≥0.25", "reading": "higher = stronger binding", "Target sequence (chain)": "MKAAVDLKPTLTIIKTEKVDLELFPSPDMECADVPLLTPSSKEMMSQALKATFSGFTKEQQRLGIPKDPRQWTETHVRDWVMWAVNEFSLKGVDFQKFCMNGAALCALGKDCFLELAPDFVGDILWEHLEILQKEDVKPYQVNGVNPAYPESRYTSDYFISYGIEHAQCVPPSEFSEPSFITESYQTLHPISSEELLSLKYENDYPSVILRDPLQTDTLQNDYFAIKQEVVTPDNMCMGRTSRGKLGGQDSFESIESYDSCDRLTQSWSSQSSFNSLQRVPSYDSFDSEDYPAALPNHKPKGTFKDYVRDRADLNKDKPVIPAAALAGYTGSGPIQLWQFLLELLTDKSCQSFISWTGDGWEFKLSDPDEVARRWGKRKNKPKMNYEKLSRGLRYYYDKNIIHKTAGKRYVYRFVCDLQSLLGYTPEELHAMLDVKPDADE"}
{"Oligonucleotide": "CATCCGAC", "E-score": 0.4}
{"Oligonucleotide": "AGCAGGAT", "E-score": 0.302}
{"Oligonucleotide": "GGAAGCGA", "E-score": 0.401}
{"Oligonucleotide": "ACAGGATC", "E-score": 0.282}
{"Oligonucleotide": "CGGAACGC", "E-score": 0.277}
{"Oligonucleotide": "CCAGTTCC", "E-score": 0.357}
{"Oligonucleotide": "AGGATATG", "E-score": 0.409}
{"Oligonucleotide": "CCGGTCGA", "E-score": 0.308}
{"Oligonucleotide": "AAGGAAGC", "E-score": 0.43}
{"Oligonucleotide": "CACTTCCC", "E-score": 0.446}
{"Oligonucleotide": "GACGGATA", "E-score": 0.395}
{"Oligonucleotide": "AGCGGAAT", "E-score": 0.323}
{"Oligonucleotide": "CGGATGCA", "E-score": 0.468}
{"Oligonucleotide": "AGGGGGAA", "E-score": 0.307}
{"Oligonucleotide": "GGAAGAGA", "E-score": 0.354}
{"Oligonucleotide": "CCGGACGA", "E-score": 0.404}
{"Oligonucleotide": "CCGGTCAC", "E-score": 0.352}
